Published values pooled from the literature.
Every numbered part comes from another study and shows a few of its results, in no order.
Chain of UniProt P42336 (whole entry, unmodified, looked up): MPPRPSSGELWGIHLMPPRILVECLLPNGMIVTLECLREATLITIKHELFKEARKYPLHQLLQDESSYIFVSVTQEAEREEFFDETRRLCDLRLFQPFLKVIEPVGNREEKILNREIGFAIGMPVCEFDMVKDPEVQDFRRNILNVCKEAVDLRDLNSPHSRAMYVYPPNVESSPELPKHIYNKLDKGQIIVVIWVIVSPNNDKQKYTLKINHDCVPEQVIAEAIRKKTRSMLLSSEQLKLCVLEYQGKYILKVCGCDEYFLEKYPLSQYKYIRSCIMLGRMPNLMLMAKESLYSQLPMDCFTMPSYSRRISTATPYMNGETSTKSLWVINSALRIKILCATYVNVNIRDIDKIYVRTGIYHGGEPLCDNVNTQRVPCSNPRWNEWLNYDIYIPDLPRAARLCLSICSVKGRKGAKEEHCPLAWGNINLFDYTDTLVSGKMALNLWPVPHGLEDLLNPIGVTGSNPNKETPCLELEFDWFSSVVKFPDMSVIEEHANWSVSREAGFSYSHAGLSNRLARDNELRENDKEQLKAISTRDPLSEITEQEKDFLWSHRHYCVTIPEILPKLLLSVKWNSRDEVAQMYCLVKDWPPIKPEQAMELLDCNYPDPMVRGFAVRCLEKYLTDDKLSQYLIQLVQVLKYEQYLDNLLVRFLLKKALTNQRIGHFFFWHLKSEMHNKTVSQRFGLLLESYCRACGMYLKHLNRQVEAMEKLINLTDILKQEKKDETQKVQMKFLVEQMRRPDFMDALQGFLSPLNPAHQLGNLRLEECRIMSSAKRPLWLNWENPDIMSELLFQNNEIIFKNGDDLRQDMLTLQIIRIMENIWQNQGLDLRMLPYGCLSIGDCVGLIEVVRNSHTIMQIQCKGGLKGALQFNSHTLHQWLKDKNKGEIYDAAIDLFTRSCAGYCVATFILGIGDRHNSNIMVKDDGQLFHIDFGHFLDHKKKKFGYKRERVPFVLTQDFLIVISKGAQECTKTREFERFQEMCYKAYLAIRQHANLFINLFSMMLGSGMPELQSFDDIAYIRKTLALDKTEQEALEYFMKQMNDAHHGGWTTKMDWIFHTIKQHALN
Chain of UniProt Q14164 (whole entry, looked up): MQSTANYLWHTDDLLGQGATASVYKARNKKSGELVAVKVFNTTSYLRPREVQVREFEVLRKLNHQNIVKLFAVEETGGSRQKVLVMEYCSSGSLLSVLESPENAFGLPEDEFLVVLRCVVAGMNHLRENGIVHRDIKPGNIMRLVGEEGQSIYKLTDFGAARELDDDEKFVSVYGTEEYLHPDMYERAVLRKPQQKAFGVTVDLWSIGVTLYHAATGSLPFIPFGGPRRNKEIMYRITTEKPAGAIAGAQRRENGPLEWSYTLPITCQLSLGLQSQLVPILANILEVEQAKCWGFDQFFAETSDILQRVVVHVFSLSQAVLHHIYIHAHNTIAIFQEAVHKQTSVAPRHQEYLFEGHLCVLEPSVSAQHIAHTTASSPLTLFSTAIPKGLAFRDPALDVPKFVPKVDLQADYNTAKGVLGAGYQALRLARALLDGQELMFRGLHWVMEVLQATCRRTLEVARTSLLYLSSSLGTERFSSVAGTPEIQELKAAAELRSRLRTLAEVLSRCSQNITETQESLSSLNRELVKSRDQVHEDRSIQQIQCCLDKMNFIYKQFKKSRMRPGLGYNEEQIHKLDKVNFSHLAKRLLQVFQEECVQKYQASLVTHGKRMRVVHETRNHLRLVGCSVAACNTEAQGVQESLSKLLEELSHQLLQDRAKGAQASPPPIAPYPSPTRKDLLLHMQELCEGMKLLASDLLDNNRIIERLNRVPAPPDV
Chain of UniProt Q9BQI3 (whole entry, looked up): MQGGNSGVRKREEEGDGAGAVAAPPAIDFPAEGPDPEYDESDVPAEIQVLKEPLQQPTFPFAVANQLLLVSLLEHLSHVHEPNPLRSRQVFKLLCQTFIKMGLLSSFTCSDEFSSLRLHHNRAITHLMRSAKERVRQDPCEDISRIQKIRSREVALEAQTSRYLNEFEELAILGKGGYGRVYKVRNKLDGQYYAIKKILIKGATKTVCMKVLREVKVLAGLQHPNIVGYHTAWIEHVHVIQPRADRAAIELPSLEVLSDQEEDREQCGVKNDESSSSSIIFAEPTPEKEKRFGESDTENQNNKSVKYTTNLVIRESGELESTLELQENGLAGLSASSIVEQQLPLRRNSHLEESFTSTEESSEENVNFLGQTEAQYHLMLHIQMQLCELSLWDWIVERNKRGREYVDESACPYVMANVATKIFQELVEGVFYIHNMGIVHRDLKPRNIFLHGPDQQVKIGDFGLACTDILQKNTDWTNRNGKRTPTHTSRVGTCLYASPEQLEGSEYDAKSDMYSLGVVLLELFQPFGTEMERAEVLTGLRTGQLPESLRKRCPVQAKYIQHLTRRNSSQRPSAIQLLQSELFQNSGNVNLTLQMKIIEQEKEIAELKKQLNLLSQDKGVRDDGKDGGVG
Chain of UniProt P49761 (whole entry, looked up): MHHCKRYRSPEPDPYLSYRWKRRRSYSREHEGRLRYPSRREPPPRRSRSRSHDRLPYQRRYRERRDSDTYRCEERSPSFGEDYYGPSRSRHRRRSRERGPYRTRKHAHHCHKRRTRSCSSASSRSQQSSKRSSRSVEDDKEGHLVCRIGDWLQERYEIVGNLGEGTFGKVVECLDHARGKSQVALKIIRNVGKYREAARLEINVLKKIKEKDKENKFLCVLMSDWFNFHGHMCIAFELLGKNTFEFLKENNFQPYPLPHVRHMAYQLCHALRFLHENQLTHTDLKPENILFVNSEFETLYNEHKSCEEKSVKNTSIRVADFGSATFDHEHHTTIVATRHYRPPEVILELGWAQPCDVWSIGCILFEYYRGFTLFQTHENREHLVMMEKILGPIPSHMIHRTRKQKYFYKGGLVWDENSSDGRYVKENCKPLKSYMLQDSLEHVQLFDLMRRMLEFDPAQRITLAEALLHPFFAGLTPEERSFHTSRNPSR
Chain of UniProt Q13043 (whole entry, looked up): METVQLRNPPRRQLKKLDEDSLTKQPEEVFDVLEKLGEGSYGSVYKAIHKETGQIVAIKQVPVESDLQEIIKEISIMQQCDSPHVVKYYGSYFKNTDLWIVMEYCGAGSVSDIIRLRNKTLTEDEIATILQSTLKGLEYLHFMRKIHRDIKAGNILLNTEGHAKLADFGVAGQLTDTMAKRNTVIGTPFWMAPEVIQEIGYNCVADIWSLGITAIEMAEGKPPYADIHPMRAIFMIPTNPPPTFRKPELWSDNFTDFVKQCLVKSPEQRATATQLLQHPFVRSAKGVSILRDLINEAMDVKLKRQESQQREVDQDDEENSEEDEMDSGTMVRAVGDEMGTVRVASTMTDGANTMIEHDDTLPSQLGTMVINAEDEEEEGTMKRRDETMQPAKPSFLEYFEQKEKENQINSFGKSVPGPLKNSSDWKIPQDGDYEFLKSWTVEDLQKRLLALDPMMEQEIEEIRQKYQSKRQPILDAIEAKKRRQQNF
Chain of UniProt P19525 (whole entry, looked up): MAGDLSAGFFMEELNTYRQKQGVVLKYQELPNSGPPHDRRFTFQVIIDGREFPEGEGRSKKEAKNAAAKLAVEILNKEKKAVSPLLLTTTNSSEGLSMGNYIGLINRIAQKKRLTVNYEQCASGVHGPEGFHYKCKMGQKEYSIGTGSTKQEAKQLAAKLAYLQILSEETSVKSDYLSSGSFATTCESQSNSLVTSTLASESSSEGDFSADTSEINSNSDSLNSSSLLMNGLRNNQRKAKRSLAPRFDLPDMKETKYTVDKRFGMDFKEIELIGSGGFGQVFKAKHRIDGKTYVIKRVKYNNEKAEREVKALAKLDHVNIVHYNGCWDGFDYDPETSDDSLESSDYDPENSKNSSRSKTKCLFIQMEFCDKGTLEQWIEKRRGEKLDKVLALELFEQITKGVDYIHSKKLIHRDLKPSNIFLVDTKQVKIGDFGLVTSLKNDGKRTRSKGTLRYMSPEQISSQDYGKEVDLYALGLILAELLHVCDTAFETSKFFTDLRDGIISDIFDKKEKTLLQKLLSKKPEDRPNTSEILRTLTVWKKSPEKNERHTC

Study 1
Target: Serine/threonine-protein kinase D2 (PRKD2, Homo sapiens, UniProt Q9BZL6)
Chain of UniProt Q9BZL6 (whole entry, looked up): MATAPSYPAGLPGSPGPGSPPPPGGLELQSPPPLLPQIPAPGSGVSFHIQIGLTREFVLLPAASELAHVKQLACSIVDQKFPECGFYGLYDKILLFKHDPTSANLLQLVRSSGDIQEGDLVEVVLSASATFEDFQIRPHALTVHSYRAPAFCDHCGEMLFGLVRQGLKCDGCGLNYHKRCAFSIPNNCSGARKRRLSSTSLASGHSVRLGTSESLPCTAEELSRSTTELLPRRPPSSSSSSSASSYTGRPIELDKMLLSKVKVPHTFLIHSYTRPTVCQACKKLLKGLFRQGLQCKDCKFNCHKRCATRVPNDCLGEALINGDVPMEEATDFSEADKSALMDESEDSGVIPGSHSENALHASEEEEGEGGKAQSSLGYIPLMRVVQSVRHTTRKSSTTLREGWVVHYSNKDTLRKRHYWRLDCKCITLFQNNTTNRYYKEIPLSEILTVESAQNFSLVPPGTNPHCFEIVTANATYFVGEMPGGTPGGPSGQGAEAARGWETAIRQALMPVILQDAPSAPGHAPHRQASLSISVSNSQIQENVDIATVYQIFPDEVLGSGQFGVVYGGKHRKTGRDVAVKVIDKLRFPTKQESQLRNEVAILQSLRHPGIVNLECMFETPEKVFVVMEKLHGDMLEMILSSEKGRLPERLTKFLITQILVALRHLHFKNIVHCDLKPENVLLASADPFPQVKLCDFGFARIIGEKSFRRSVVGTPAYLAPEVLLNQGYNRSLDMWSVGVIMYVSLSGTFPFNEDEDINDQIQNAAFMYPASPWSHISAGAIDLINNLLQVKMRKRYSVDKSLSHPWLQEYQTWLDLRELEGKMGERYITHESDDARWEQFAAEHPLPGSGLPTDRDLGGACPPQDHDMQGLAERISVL
Observed: enzyme activity
Mode: inhibitor
Tested at: 0.5 µM
Relative to: control
Measurement: remaining activity
Oc1ccc(Nc2nc(-c3ccc(Cl)cc3)cs2)cc1: 102%
Fc1ccc(-c2nc3n(c2-c2ccncc2)CCS3)cc1: 94.7%
O=C1Cc2c([nH]c3ccc([N+](=O)[O-])cc23)-c2ccccc2N1: 101%
O=C1NC(=O)C(c2c[nH]c3ccccc23)=C1c1c[nH]c2ccccc12: 87.4%
COc1ccc(S(=O)(=O)N(CCO)c2ccccc2CN(C)CC=Cc2ccc(Cl)cc2)cc1: 99.8%
NC(=O)c1ccc(N(C(N)=O)c2c(F)cccc2F)nc1-c1ccc(F)cc1F: 81.8%
CSc1nc(-c2ccnc(N[C@@H](C)c3ccccc3)c2)c(-c2ccc(F)cc2)[nH]1 (racemic): 86.4%
Cc1ccc(NC2=CC(=O)c3sc(C)nc3C2=O)cc1: 87.7%
Nc1nc(Nc2ccc(S(N)(=O)=O)cc2)nn1C(=O)c1c(F)cccc1F: 86%
Cc1cncc2cccc(S(=O)(=O)N3CCCN(C(=O)CN)C[C@@H]3C)c12: 96%
N#CC(=C(N)Sc1ccc(N)cc1)c1ccccc1C(F)(F)F: 93.4%
CC#CC(=O)Nc1cc2c(Nc3ccc(F)c(Cl)c3)ncnc2cn1: 97.6%
Nc1ncnc2c1cnn2-c1ccccc1: 126%
CC[n+]1c(/C=C/N(C)c2ccccc2)n(-c2ccccc2)c2ccc(-c3nc4ccccc4s3)cc21: 102%
COc1cc(Nc2c(C#N)cnc3cc(OCCCN4CCN(C)CC4)c(OC)cc23)c(Cl)cc1Cl: 35.5%
Cc1cc(Nc2nc(-c3ccccc3)nc3ccccc23)n[nH]1: 75.9%
CCCC(=O)Oc1ccc2[nH]c(C(=O)c3cc4ccccc4[nH]3)cc2c1: 91.7%
CCc1[nH]c(-c2ccc(OC)cc2)nc1-c1ccncc1: 102%
CC(=O)c1ccc(N2CCOCC2)cc1O: 97.4%
Nc1nccc(-c2c(-c3ccc(F)cc3)ncn2C2CCNCC2)n1: 50.4%

Study 2
Cell line: HH
Tested at: 2 µM
Time: 48 h
Relative to: untreated
Measurement: viability
CNC(=O)c1cc(Oc2ccc(NC(=O)Nc3cc(C(C)(C)C)nn3-c3ccc4ncccc4c3)c(F)c2)ccn1: 76.6%
COc1ccc(Cl)cc1NC(=O)Nc1cc(C)nc2ccccc12: 65.5%
Cc1ccc(S(=O)(=O)/C=C/C#N)cc1: 93.4%
Cc1[nH]c2ccccc2c1C1=C(NCCc2ccc(F)cc2)C(=O)N(C)C1=O: 98.9%
c1cncc(CN2CCC(n3ncc4c(N5CCOCC5)nc(-c5ccc6[nH]ccc6c5)nc43)CC2)c1: 40.1%
O=C1NC(=O)C(=Cc2ccc(-c3ccc(F)cc3)o2)S1 (stereo in doubt): 86.7%
Cc1cc(N2CCOCC2)cc2[nH]c(-c3c(NC[C@@H](O)c4cccc(Cl)c4)cc[nH]c3=O)nc12: 81.6%
Oc1ccc2ccccc2c1SSc1c(O)ccc2ccccc12: 90.8%
COc1cc2ncnc(Oc3ccc(CC(=O)Nc4cnn(C(C)C)c4)cc3)c2cc1OC: 96.1%
O=C1Nc2ccc(I)cc2/C1=C/c1cc(Br)c(O)c(Br)c1: 95.2%
Fc1cc(-c2cccc3ncc(-c4cnn(C5CCNCC5)c4)nc23)cc(F)c1CN1CCOCC1: 69.9%
O=C(NC[C@H](O)CO)c1ccncc1Nc1ccc(I)cc1F: 72.2%
CCn1c2ccccc2c2cc(Nc3ccnc(NCCCN4CCOCC4)n3)ccc21: 105%
Nc1ncnc2c1c(-c1cnc3[nH]ccc3c1)nn2C1CCCC1: 30.9%
O=C1NC(=O)C(c2ccccc2[N+](=O)[O-])=C1Nc1ccc(O)c(Cl)c1: 93.9%
COc1cccc(-c2cc(=O)c3ccccc3o2)c1N: 99.9%

Study 3
Matrix: hydrocarbon/water
pH: 7.4
Measurement: logD
CCCN1CC(=O)N[C@@H](CC(C)C)C(=O)N2CCC[C@@H]2C(=O)N(C)[C@@H](C)C(=O)N[C@@H](CC)C(=O)N(C)[C@@H](C)C(=O)N[C@@H](CC(C)C)C(=O)N(C)Cc2cn(nn2)CC(=O)N[C@@H](CC(C)C)C1=O: -1.78
CC(C)C[C@@H]1NC(=O)[C@H](Cc2ccccc2)NC(=O)[C@H]2CCCN2C(=O)[C@H](CC(C)C)NC(=O)[C@H](C)NC(=O)[C@@H](C)NC1=O: -1.08
CCC[C@@H]1NC(=O)[C@H](C)N(C)C(=O)[C@H](CC(C)C)NC(=O)Cn2cc(nn2)CN(C)C(=O)[C@H](CC(C)C)NC(=O)[C@H](C)N(C)C(=O)[C@H](CC)NC(=O)[C@H](CC)N(C)C(=O)[C@H]2CCCN2C1=O: -1.59
CCC[C@H]1C(=O)N[C@@H](CC)C(=O)N(C)[C@@H](C)C(=O)N[C@@H](CC(C)C)C(=O)N(C)Cc2cn(nn2)CC(=O)N[C@@H](CC(C)C)C(=O)N(C)[C@@H](C)C(=O)N[C@@H](CC(C)C)C(=O)N2CCC[C@@H]2C(=O)N1C: -0.345
CCCCCN1CC(=O)N[C@@H](Cc2ccccc2)C(=O)N2CCC[C@@H]2C(=O)N(C)[C@@H](CC(C)C)C(=O)N[C@@H](C)C(=O)N(CCCOC(C)C)CC(=O)N[C@@H](CC(C)C)C(=O)N2CCC[C@@H]2C(=O)N(C)[C@@H](CC(C)C)C(=O)N[C@@H](C)C1=O: 2.32
CCN1CC(=O)NC(CC(C)C)C(=O)N(C)C(C)C(=O)NC(CC(C)C)C(=O)N2CCCC2C(=O)N(CC2CCCCC2)CC(=O)NC(CC(C)C)C(=O)N(C)C(C)C(=O)NC(C)C(=O)N2CCCC2C1=O (stereo not shown): 2.45
CCCN1CC(=O)N[C@@H](CC2CCCCC2)C(=O)N(C)[C@@H](C)C(=O)N[C@@H](CC(C)C)C(=O)N(C)Cc2cn(nn2)CC(=O)N[C@@H](CC(C)C)C(=O)N(C)[C@@H](C)C(=O)N[C@@H](CC(C)C)C(=O)N2CCC[C@@H]2C1=O: 1.16
CC(C)C[C@@H]1NC(=O)CN(CCCOC(C)C)C(=O)[C@H](C)NC(=O)[C@H](CC(C)C)N(C)C(=O)[C@H]2CCCN2C(=O)[C@H](C)NC(=O)CN(CC2CCOCC2)C(=O)[C@H](C)NC(=O)[C@H](CC(C)C)N(C)C(=O)[C@H]2CCCN2C1=O: -0.151

Study 4
SMILES: C[C@H](c1ccnc(Nc2nc3ccc(-c4cc(N(C)C)ncn4)cc3[nH]2)c1)N1CCN(C(=O)CC(F)(F)F)CC1
Technique: competition with immobilised ligand
Tested at: 0.1 µM
Measurement: remaining binding
PIK3CA (Homo sapiens, UniProt P42336, E542K); cell-free assay: 53%
SIK2 (Homo sapiens, UniProt Q9H0K1); cell-free assay: 79%
PIK3CA (Homo sapiens, UniProt P42336, E545K); cell-free assay: 100%
EIF2AK2 (Homo sapiens, UniProt P19525); cell-free assay: 100%
Aurora kinase A (AURKA, Homo sapiens, UniProt O14965); cell-free assay: 100%
EGFR (Homo sapiens, UniProt P00533, L858R); cell-free assay: 95%
Myosin-IIIb (MYO3B, Homo sapiens, UniProt Q8WXR4); binding: 100%
STK4 (Homo sapiens, UniProt Q13043); cell-free assay: 100%
FLT3 (Homo sapiens, UniProt P36888, K663Q); cell-free assay: 60%
CLK3 (Homo sapiens, UniProt P49761); cell-free assay: 100%
SRC (Homo sapiens, UniProt P12931); cell-free assay: 100%
EIF2AK1 (Homo sapiens, UniProt Q9BQI3); cell-free assay: 100%
Insulin receptor (INSR, Homo sapiens, UniProt P06213); cell-free assay: 100%
IKBKE (Homo sapiens, UniProt Q14164); binding: 9.9%

For quick reference, copied from above (study 2):
COc1cc2ncnc(Oc3ccc(CC(=O)Nc4cnn(C(C)C)c4)cc3)c2cc1OC: 96.1%
Nc1ncnc2c1c(-c1cnc3[nH]ccc3c1)nn2C1CCCC1: 30.9%
COc1cccc(-c2cc(=O)c3ccccc3o2)c1N: 99.9%
Cc1[nH]c2ccccc2c1C1=C(NCCc2ccc(F)cc2)C(=O)N(C)C1=O: 98.9%
O=C1Nc2ccc(I)cc2/C1=C/c1cc(Br)c(O)c(Br)c1: 95.2%
CNC(=O)c1cc(Oc2ccc(NC(=O)Nc3cc(C(C)(C)C)nn3-c3ccc4ncccc4c3)c(F)c2)ccn1: 76.6%
O=C1NC(=O)C(=Cc2ccc(-c3ccc(F)cc3)o2)S1 (stereo in doubt): 86.7%
